Measurements gathered from unrelated publications.
Numbered parts are unrelated; each lists some results of a single study.

Block 1 — method: RNA Bind-n-Seq; form: RNA; medium: in vitro; tested at: not given; reference: input RNA pool; direction: higher = stronger binding
Target: RING finger protein unkempt homolog, zinc fingers 1-6, GST-SBP tag (UNK, Homo sapiens, UniProt Q9C0B0, residues 30-357)
Setting: RNA with constant flanks, human and mouse sites, ends assumed
All sequences stand within: GGGAGUUCUACAGUCCGACGAUC … CAACAGAGGAUUGAGCAUCA
Residues (chain): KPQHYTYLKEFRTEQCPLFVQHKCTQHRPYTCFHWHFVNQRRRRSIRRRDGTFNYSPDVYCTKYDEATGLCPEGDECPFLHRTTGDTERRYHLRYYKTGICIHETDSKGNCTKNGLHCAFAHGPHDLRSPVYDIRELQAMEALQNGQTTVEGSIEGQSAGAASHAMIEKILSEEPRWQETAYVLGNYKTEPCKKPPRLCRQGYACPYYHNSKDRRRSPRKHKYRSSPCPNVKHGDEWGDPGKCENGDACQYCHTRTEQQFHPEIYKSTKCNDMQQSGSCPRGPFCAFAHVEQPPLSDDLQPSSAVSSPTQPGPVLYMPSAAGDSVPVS
For `UUGCUAUUGUGAGAUGGAUUUUAACUGACCUAUUAAGGGUUUCUUUCGAAUGGCACUACUUUAGGGACAUUCUAGUAUUUGCUUCUAUUGUUUGGGCCUUGUGGAUAAUGUACAGAUUUA`, the bound/input enrichment was 0.395 ratio.
For `CCCAAGAAACUCCAUUUGUGUGCCUUGUGUGGCAAGAACUUUUCUAAUAACUCAAACCUAAUUAGGCACCAGAGAAUACAUGCAGCAGAAAAGCUGUGUAUGGAUGUAGAGUGUGGUGAA`, the bound/input enrichment was 0.32 ratio.
`GGUGGGACGGAAAAGACAUCACAGUAUGCAGGAAGGCUUGGGUUUGCUCAAAGUACCAGGUAUAGGGAUGAACCUCUGAUGGGCUCUCUGCCCUAGAGUUGGGCAGCCUUCUCACCCCAG` has a bound/input enrichment of 0.319 ratio.
The bound/input enrichment of `ACCAUUGCCUUGCUUGGUUACCUGAAGCACUACAGAAACAUUCCUGGACCCCACAUGGUUUUAGUUCCCAAGUCUACUUUACAUAACUGGAUGAAUGAAUUUAAACGAUGGGUUCCAUCU` is reported as 0.0736 ratio.
With `CCAGGAAAAGUGUCUGGCAGCCCUGAGCAAGCCGUGGAGGAAAACCUUAGUUCCUAUUCCUUAGACAGAAGAGUGACACCCGCCUCUGAGACCCUAGAAGACCCUUGCAGGACAGAGUCC` the bound/input enrichment was 0.831 ratio.
`CCAGGCCCAGCCAAGUCAGAGUUUGACUUAGCAACUAUUUCUAGAAUUUUUUCAGCUCUUUUAGUGACAGCUUUUAAACCAUCAAUCUUUUUGUUUUGUUUUUUUGUUUUUCAAGACACG` gave a bound/input enrichment of 32 ratio.
`CCAUAUCGAGCCACUUUUAUUGCAGACAAUGAGCUGUGGGUUGUCACAUCAUUCAUGGCAUACGGUUCUGCAAAAGAUCUCAUCUGUACACACUUCAUGGAUGGCAUGAAUGAGCUGGCG` has a bound/input enrichment of 0.117 ratio.
With `UGGACAAACCAUAAAUUCAAUGUGUCUGCCACUCCAGAGCAAUACGUUCCUUAUUCCACCACUAGAAAGAAGAUUCAUGAAUGGGUUCCACCUUCGACACCUUACAAGUGACCGCAGUGA` the bound/input enrichment was 0.495 ratio.

Block 2 — method: protein binding microarray; form: double-stranded DNA, one strand shown; medium: in vitro; tested at: not given; reference: not given; direction: higher = stronger binding
Target: Histone acetyltransferase KAT6A, winged helix 2, GST fusion (KAT6A, Homo sapiens, UniProt Q92794, residues 85-181)
Setting: 8-mer, flanks averaged, mean of 2 arrays, mostly near background
Target sequence (chain): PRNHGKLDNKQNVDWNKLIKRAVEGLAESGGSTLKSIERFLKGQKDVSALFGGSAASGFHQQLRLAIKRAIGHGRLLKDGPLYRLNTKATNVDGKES
`AATTTTCA` gave an E-score of -0.0663.
For `CTCAAAAC`, the E-score was 0.0159.
The E-score of `AACGCAGT` is reported as -0.0535.
`AGGCCTGA` gave an E-score of 0.0309.
`AGGAACCC` has an E-score of 0.0183.
`CTGGCGGA` gave an E-score of 0.0142.
The E-score of `AAAGATGA` is reported as 0.0903.
`AGCTTTAT` has an E-score of 0.0146.
For `CATTTTAC`, the E-score was 0.0187.
For `ATGCGCGC`, the E-score was 0.0624.
For `GACAAATC`, the E-score was -0.16.
For `AGGATCTC`, the E-score was -0.0915.
The E-score of `GCTGTAAA` is reported as 0.114.
`CCATTTAA` gave an E-score of 0.00777.
`ACCGCATC` has an E-score of 0.14.
For `ACCGGCAG`, the E-score was 0.0124.
For `AAGCGGCA`, the E-score was 0.177.
`CAAGATCC` has an E-score of 0.0911.
`ACTCCAGA` gave an E-score of 0.0746.
With `ACAGACAA` the E-score was 0.131.
With `AACGTACC` the E-score was -0.228.
`ACTGGGTG` has an E-score of 0.00547.
With `GTCGGGAA` the E-score was 0.108.
With `ATGTAGAC` the E-score was -0.103.
For `GGTTCGAC`, the E-score was 0.0698.

Block 3 — method: RNA Bind-n-Seq; form: RNA; medium: in vitro; tested at: 1 µM; setting: whole 134-nt RNA, ends assumed; added: 150 mM KCl; reference: input library; direction: higher = stronger binding
Target: Ras GTPase-activating protein-binding protein 1, RRM domain (G3BP1, Homo sapiens, UniProt Q13283)
Chain of UniProt Q13283 (whole entry, looked up): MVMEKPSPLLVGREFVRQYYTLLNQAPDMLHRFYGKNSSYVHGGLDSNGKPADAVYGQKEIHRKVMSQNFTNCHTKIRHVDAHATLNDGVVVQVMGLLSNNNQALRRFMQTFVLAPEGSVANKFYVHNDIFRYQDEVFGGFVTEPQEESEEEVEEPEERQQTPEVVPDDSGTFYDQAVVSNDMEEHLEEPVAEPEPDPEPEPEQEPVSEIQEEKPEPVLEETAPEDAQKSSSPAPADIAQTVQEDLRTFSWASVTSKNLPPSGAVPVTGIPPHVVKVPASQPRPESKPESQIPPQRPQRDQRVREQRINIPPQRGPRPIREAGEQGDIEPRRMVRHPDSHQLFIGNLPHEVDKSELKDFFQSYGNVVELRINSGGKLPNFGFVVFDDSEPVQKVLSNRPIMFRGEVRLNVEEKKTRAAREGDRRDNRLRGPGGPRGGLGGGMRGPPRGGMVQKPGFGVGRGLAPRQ
All sequences stand within: GGGAGUUCUACAGUCCGACGAUC … UGGAAUUCUCGGGUGUCAAGG
For `CUCAAGUCCUGUGCUACACAUCGUAUGUACCGAAUCGGAGGAAAAAAAGGAGGAAAGUAUUAUGUUACGCCGUUCGGAUCUGCACUUCCA`, the log2 enrichment was -0.16.
`GCAGGAAGUAAAAAAAAAUGGAAAUGCUUCGGAUAGUGGCAGGGGUGGGGGUUGCUAAGGAAAGGGUGGGAUGGGAGUGGGUAAAGAGUU` has a log2 enrichment of 1.29.
The log2 enrichment of `UAACUUUAGAGGAGGAUCUGAUGGAUAUGGCAGUGGACGUGGAUUUGGGGAUGGCUAUAAUGGGUAUGGAGGAGGACCUGAAGGUGGCAA` is reported as -0.442.
With `AAGUCCUGUGCUACACAUCGUAUGUACCGAAUCGGGUUUGGGUUUGGGAAAAAGGGAAAGUAUUAUGUUACGCCGUUCGGAUCUGCACUU` the log2 enrichment was 0.44.
With `UGGCCCUGGUGGCAUGCGGGGAGGAAGAGGUGGCCUCAUGGAUCGUGGUGGUCCCGGUGGAAUGUUCAGAGGUGGCUGUGGUGGAGACAG` the log2 enrichment was 1.42.
For `CAAGUCCUGUGCUACACAUCGUAUGUACCGAAUCGGGUUUUUGGGAGGGUUUGGGAAAGUAUUAUGUUACGCCGUUCGGAUCUGCACUUC`, the log2 enrichment was 0.567.
`UGGGAGGUGGAUUUUGUUUAUUUUUUUAGCUCAUUUCCAGGGGUGUGAAUUUUUUUUUAAUAUGUGUCAUGAAUAAAGUUGUUUUUGAAA` has a log2 enrichment of 1.76.
With `UAACUUUAGAGCAGGAUCUGAUGGAUAUGGCAGUGGACGUGGAUUUGGGGAUGGCUAUAAUGGGUAUGGAGGAGGACCUGGAGGUGGCAA` the log2 enrichment was -0.801.
With `CCUCAAGUCCUGUGCUACACAUCGUAUGUACCGAAUCGGGGAGGGAGGAGGGAAAGUAUUAUGUUACGCCGUUCGGAUCUGCACUUCCAG` the log2 enrichment was 0.00321.

Block 4 — method: RNA Bind-n-Seq; form: RNA; medium: in vitro; tested at: 365 nM; reference: no-protein control; direction: higher = stronger binding
Target: RNA binding protein fox-1 homolog 2, RRM domain, GST-SBP tag (RBFOX2, Homo sapiens, UniProt O43251-10, residues 100-194)
Setting: natural RNA segment, single round, ends assumed
All sequences stand within: GGGAGUUCUACAGUCCGACGAUC … UGGAAUUCUCGGGUGCCAA
Construct (chain): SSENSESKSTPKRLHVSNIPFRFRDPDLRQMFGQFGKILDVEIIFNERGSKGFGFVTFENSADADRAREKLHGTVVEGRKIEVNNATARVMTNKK
`UUGAGCUGGGACUGGCUUGGGGCUUAGAACCAAGAACAGGUAGAAAAUUCCUUAAACAAAGCAUUCCUACAGCGUUUUGCUGGGUGAGAGGAAUCAAACUGGUUCCCUUU`: “RBNS enrichment (R)” 0.414.
For `CUUAUGGAUUGACUAGAUUCAUAUCACUUUCUCCUCUAAAAUAUUGUAGUAUUUUCUUAUAGUUAUAACUCAAAAAUAUCAAGCAGACAGAGAAUUUAGGCAGUGCAAAG`, “RBNS enrichment (R)” read 0.595.
For `CCCCAACACCACUGCCACCACCCCUCUUUUUAUCCUGGUGUGAAACAAUGGUAAUUUGAUAUAUGGUAUUUAUAUUGGCAUUUUUCAACCCAGUGUCACUAGAUGUCACA`, “RBNS enrichment (R)” read 0.502.
`AGAGGUAACCCCAAGCAGGGCUGGCCCCUCUAAAGAGGACAUUUCCCAGUUUGUCCUUUCUUGUCCAUACCUACACACACCUGCAGCGGGGGUCUGGGGAACAUGUGGGC` — result for “RBNS enrichment (R)”: 0.609.
`GGACUCUGUCAGGGGACUCUGUCAUCGCUUCCCUUCCUCAGAGGACAGCACAGAGCCGCGGCGUACACACUGACGUACCCACCACCAACAGAUUGAGGCACUGACGCAGC` — result for “RBNS enrichment (R)”: 0.356.
For `CAUUUUUUUUUUAAAGGCCAUCUGAAAUUCCAUUUGUCAUGGUGGGAAGCAUUUUGGAUAUGAUGCAGGAAAUCUCUUCCUGGAGUCAAAAGUUCCCAAGAGGUCCUGUA`, “RBNS enrichment (R)” read 1.01.
For `GCAUUUUACUGUACAUCACAAGGCCAUUUUUAUAUACGGACACUUUUAAUAAGCUAUUUCAAUUUGUUUGUUAUAUUAAGUUGACUUUAUCAAAUACACAAAGAUUUUUU`, “RBNS enrichment (R)” read 0.956.
For `CUAACCCUCUGCACAGCCCUUCUGGGUGGUCCUCACCAGGUCUCUGAGCUGGGUGGGAGGCCAUCCUGGCGACCACUGCCCAUUCCAUUCACCCCUCACUGUACCUGCCC`, “RBNS enrichment (R)” read 0.553.

A few entries again (block 2):
`AATTTTCA` gave an E-score of -0.0663.
For `CTCAAAAC`, the E-score was 0.0159.
The E-score of `AACGCAGT` is reported as -0.0535.
`AGGCCTGA` gave an E-score of 0.0309.
